Experimental data from different studies.
± gives the spread as reported.
Genome polyprotein protease: Genome polyprotein, protease (Enterovirus A71, UniProt Q66478)
Urease: Urease (Canavalia ensiformis, UniProt P07374)
CYP2B6: Cytochrome P450 2B6 (CYP2B6, Homo sapiens, UniProt P20813)
murE: UDP-N-acetylmuramoyl-L-alanyl-D-glutamate--2,6-diaminopimelate ligase (murE, Mycobacterium tuberculosis, UniProt P9WJL3)
NA: Neuraminidase (NA, Influenza A virus, UniProt P03468)

| SMILES | target | assay | system | setting | IC50 [µM] |
| --- | --- | --- | --- | --- | --- |
| C=CC(=O)N1CCN(c2cc(-c3ccc(C4CCC4)cc3)ncc2C(=O)N[C@H](Cc2ccccc2)C(=O)NC)C(C)C1 (stereo partly shown) | Replicase polyprotein 1ab, main protease (rep, Human coronavirus NL63, UniProt P0C6X5) | enzyme activity, inhibitor |  |  | > 100 |
| CC(C)C[C@H](N)C(=O)NCC(=O)N[C@H](C(=O)N[C@@H](C)C(=O)N1CCC[C@H]1C(=O)N[C@H](C(=O)N[C@@H](CCCCN)C(=O)N[C@@H](C)C(=O)N[C@@H](CCCCN)C(=O)N[C@@H](CCCNC(=N)N)C(=O)N[C@@H](CCCNC(=N)N)C(=O)N[C@H](C(=O)N[C@H](C(=O)N[C@@H](CCC(N)=O)C(=O)N[C@@H](CCCNC(=N)N)C(=O)N[C@@H](CCC(=O)O)C(=O)N[C@@H](CCCCN)C(=O)N[C@@H](CCCNC(=N)N)C(N)=O)C(C)C)C(C)C)[C@@H](C)O)C(C)C | Furin (FURIN, Homo sapiens, UniProt P09958) | enzyme activity, inhibitor, fluorescence |  | pH 7 | 1.6 |
| COc1ccccc1/N=C/c1nc(-c2ccccc2)oc1OC(C)=O | Genome polyprotein protease | enzyme activity, inhibitor |  |  | > 50 |
| CCCCCc1cc(O)c2c(c1)OC(C)(C)C1CCC(C)=CC21 (single isomer, unassigned; (-)) | UDP-glucuronosyltransferase 2B4 (UGT2B4, Homo sapiens, UniProt P06133) | enzyme activity, inhibitor | HEK293 | pH 7.4 | 11 |
| CCCCCc1cc(O)c2c(c1)OC(C)(C)C1=C2[C@@H](O)[C@@](C)(O)CC1 | rat intestinal α-glucosidase | enzyme activity, inhibitor |  |  | 310 |
| OC(c1ccccc1)(c1ccccc1)[C@H]1CCCN1 | Intermediate conductance calcium-activated potassium channel protein 4 (KCNN4, Homo sapiens, UniProt O15554) | ion current, inhibitor, patch clamp |  |  | > 50 |
| N#Cc1cn([C@@H]2O[C@H](CSCC[C@H](N)C(=O)O)[C@@H](O)[C@H]2O)c2ncnc(N)c12 | Replicase polyprotein 1ab, nsp10-nsp16 complex (rep, Human coronavirus 229E, UniProt P0C6X1) |  |  |  | 1.1 ± 0.2 |
| CN1C(=O)C2(C3=C(Nc4[nH]c(=O)[nH]c(=O)c42)c2ccccc2C3=O)c2ccccc21 (stereo not shown) | Urease | enzyme activity, inhibitor, absorbance |  |  | 4.35 |
| O=C(NC1CCN(c2ncnc3[nH]cnc23)CC1)c1cccc(NS(=O)(=O)c2ccc(C(F)(F)F)cc2)c1 | Replicase polyprotein 1ab, nsp14 (rep, Human coronavirus 229E, UniProt P0C6X1) |  |  |  | 9.11 |
| C=CC(=O)NC(CC(=C)C)C(=O)N1CC(C(=O)NC(C(=O)NC)C(C)CC)C(c2cccc(C(F)(F)F)c2)C1 (stereo not shown) | Replicase polyprotein 1ab, main protease (rep, Human coronavirus NL63, UniProt P0C6X5) | enzyme activity, inhibitor |  |  | > 100 |
| CCCCCc1cc(O)c2c(c1)OC(C)(C)C1CCC(CO)=CC21 (stereo not shown) | CYP2B6 | enzyme activity, inhibitor | microsomes from HEK cells | 30 min, preincubation with NADPH | 6.1 ± 1 |
| CCCCCCCCC/C=C\CCCc1cc(=O)c2ccccc2n1C | murE | enzyme activity, inhibitor, absorbance |  |  | 52 |
| C=CC(=O)NC(CC(=C)C)C(=O)N1CC(C(=O)NC(Cc2ccccc2)C(=O)NC)C(c2cccc(C(F)(F)F)c2)C1 (stereo not shown) | Replicase polyprotein 1ab, main protease (rep, Human coronavirus NL63, UniProt P0C6X5) | enzyme activity, inhibitor |  |  | > 100 |
| O=C1Nc2ccccc2C12c1c([nH]c(=O)[nH]c1=O)Nc1[nH]c(=O)[nH]c(=O)c12 | Urease | enzyme activity, inhibitor, absorbance |  |  | 14.5 |
| C[C@]12CC[C@H](O)CC1=CC[C@@H]1[C@@H]2CC[C@]2(C)C(=O)CC[C@@H]12 | Glucose-6-phosphate 1-dehydrogenase (G6PD, Homo sapiens, UniProt P11413) | enzyme activity, inhibitor |  |  | 9 |
| CCCCCCCC/C=C\CCCCc1cc(=O)c2ccccc2n1C | murE | enzyme activity, inhibitor, HPLC |  |  | 95 |

| SMILES | target | assay | system | setting | IC50 [µM] |
| --- | --- | --- | --- | --- | --- |
| O=C(/C=C/c1ccc(O)cc1)OC[C@@]1(O)CO[C@@H](O[C@H]2[C@H](Oc3ccc(/C=C/C(=O)c4ccc(O)cc4O)cc3)O[C@H](CO)[C@@H](O)[C@@H]2O)[C@@H]1O | NA | enzyme activity, inhibitor |  |  | 0.04 |
| C=C(C)C1C2OC(=O)C1C1(O)CC3OC34C(=O)OC2C14C (stereo not shown) | GABA-A receptor; alpha-1/beta-2/gamma-2 (Homo sapiens, UniProt P14867+P18507+P47870) | ion current, two-electrode voltage clamp |  | oocytes | 4.47 |
| COc1cc(N2CCN(C)CC2)ccc1Nc1ncc2c(n1)N(C1CCC1)C(=O)N(c1c(C)cccc1C)C2 | Serine/threonine-protein kinase SIK2 (SIK2, Homo sapiens, UniProt Q9H0K1) | enzyme activity, inhibitor |  |  | 0.014 |
| COc1cc(C[S+]([O-])c2nc3cccnc3s2)oc(=O)c1 (stereo not shown) | Genome polyprotein protease | enzyme activity, inhibitor |  |  | > 50 |
| C=CC(=O)NC(CC(=C)C)C(=O)N1CC(C(=O)NC(CCSC)C(=O)NC)C(c2cccc(C(F)(F)F)c2)C1 (stereo not shown) | Replicase polyprotein 1ab, main protease (rep, Human coronavirus 229E, UniProt P0C6X1) | enzyme activity, inhibitor |  |  | > 100 |
| CCC[C@H](C(=O)c1ccccc1)N1CCCC1 | Sodium-dependent dopamine transporter (SLC6A3, Homo sapiens, UniProt Q01959) | transporter uptake, inhibitor, radiometric |  |  | 2.5 |
| C=CCC(NC(=O)C1CN(C(=O)C(CC(=C)C)NC(=O)C=C)CC1c1cccc(C(F)(F)F)c1)C(=O)NC (stereo not shown) | Replicase polyprotein 1ab, main protease (rep, Human coronavirus 229E, UniProt P0C6X1) | enzyme activity, inhibitor |  |  | > 100 |
| C[C@@H](CN1CCC(n2c(=O)[nH]c3cc(Br)ccc32)CC1)NC(=O)[C@@H]1C[C@H]1c1ccccc1 | Phospholipase D (Pseudomonas aeruginosa, UniProt Q9HYC2) | enzyme activity, inhibitor |  |  | 26.1 |
| Cc1sc2c(c1C)C(c1ccc(Cl)cc1)=N[C@@H](CC(=O)OC(C)(C)C)c1nnc(C)n1-2 | CREB-binding protein (CREBBP, Homo sapiens, UniProt Q92793) | inhibitor, biochemical |  |  | > 10 |
| CCCCn1c(NCc2ccc(N3N=C(c4ccccc4)CC3c3ccccc3)cc2)nc2ccccc21 (stereo not shown) | Genome polyprotein protease | enzyme activity, inhibitor |  |  | 3.3 |
| CCCCCc1cc(O)c2c(c1)OC(C)(C)C1CCC(C)=CC21 (single isomer, unassigned; (-)) | CYP2B6 | inhibitor | human, pooled liver microsomes | pH 7.4, together with: bupropion | 0.97 ± 0.12 |
| COc1ccc2c(c1)CCC1C2=NN(C(C)=O)C1c1cccc(I)c1 (stereo not shown) | Genome polyprotein protease | enzyme activity, inhibitor |  |  | 10.6 |
| C=CC(=O)NC(CC(=C)C)C(=O)N1CC(C(=O)NC(Cc2ccco2)C(=O)NC)C(c2cccc(C(F)(F)F)c2)C1 (stereo not shown) | Replicase polyprotein 1ab, main protease (rep, Human coronavirus 229E, UniProt P0C6X1) | enzyme activity, inhibitor |  |  | > 100 |
| COc1cc(/C=C/C(=O)CC(=O)/C=C/c2ccc(O)c(O)c2)ccc1O | NA | enzyme activity, inhibitor |  |  | 62.8 |
| CCCCCc1cc(O)cc2c1Oc1cc(O)cc(C(=O)CCCC)c1C(=O)O2 | Endonuclease 8 2 (nei2, Mycobacterium tuberculosis, UniProt P9WNC1) | uracil DNA glycosylase activity, inhibitor, gel-based cleavage |  | together with: uracil-containing ssDNA substrate | 41.8 |
